# Measurements of several laboratories.
# Numbered parts are unrelated; each lists some results of a single study. Positions count from the first letter of the parent shown.

# Sample 1
# Target: ABI1, truncated, D143A, DHFR fusion (Arabidopsis thaliana)
# Technique: DHFR PCA, deep sequencing
# Matrix: yeast
# Notes: methotrexate growth selection, single substitutions
# Added: (+)-ABA 17 µM
# Baseline: wild-type fitted maximum
# Reading: higher = stronger binding
# Parent: PYL1, truncated, DHFR fusion (Arabidopsis thaliana); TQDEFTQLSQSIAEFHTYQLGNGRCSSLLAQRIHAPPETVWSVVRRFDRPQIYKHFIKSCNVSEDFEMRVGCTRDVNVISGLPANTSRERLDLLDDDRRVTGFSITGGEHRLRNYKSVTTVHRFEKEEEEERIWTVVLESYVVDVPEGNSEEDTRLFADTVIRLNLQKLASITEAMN
Substitution,relative binding score
E125Q,91.5%
S27W,4.4%
T173I,71.1%
Q10E,87.3%
Q167E,78.3%
G148T,54.1%

# Sample 2
# Target: CCND2, cyclin fold, Cln2 fusion (human)
# Technique: yeast growth competition, sequencing
# Matrix: yeast
# Notes: weak parent motif
# Baseline: not given
# Reading: higher = stronger binding
# Parent: WEE1 docking peptide (human); HKTFRKLRLFDTP; partner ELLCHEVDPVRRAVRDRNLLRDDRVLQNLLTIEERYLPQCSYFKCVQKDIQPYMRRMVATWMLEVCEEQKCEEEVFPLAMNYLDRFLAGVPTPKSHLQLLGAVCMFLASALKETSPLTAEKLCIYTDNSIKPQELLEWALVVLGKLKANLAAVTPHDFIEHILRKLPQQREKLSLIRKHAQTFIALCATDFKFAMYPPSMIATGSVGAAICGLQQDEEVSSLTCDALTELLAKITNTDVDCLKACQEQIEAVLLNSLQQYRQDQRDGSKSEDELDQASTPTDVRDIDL
Substitution,normalised enrichment score
HKTFRKLRLFVTP [D11V],-0.127
HKTFRKLDLFDTP [R8D],0.0899
HKTFRKLRLFDLP [T12L],-0.457
HKTFRKLRLFDNP [T12N],0.47
HKTFTKLRLFDTP [R5T],0.14
HKTFRKLRLFDQP [T12Q],-0.0476
HKTFRKERLFDTP [L7E],0.17
HKTYRKLRLFDTP [F4Y],-0.129
KKTFRKLRLFDTP [H1K],0.9
HKTFQKLRLFDTP [R5Q],0.16
HKTLRKLRLFDTP [F4L],-0.0435

# Sample 3
# Target: Interferon regulatory factor 7, full length, phosphomimetic (IRF7, Homo sapiens, UniProt Q92985, residues 1-503, S101K/S471D/S472D/S475D/S476D/S477D/S483D/S484D/S487D)
# Technique: protein-binding microarray
# Form: double-stranded DNA, one strand shown
# Matrix: in vitro
# Tested at: 250 nM
# Notes: 60-bp whole probe
# Added: salmon DNA 0.4 mg/ml
# Baseline: random background probes
# Reading: higher = stronger binding
# All sequences stand within: GCCTAGCAC … GTCTTGATTCGCTTGACGCTGCTG
# Construct (chain): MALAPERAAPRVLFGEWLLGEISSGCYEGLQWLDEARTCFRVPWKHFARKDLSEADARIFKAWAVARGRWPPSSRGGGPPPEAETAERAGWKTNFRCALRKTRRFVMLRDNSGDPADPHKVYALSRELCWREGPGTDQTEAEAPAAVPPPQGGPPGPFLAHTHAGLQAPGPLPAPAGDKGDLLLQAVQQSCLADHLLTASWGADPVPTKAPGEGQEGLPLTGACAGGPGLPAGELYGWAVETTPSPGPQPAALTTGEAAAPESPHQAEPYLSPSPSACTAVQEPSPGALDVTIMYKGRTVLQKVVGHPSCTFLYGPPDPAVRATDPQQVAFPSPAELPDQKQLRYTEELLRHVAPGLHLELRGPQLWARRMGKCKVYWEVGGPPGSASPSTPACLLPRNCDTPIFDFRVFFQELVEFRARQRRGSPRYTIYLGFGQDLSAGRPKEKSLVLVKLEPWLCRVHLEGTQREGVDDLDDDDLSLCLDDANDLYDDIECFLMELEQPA
Sequence,log fluorescence
GACGGTTCCGGTTTCGGGACGTGCTAG,7.41 z-score
TCACATCTCTGCTCCTTACTGTGCTAG,0.621 z-score
GACGGTTCCGGTGTCGGGACGTGCTAG,0.0267 z-score
CCTAGCCTCCCAGCCCAGCAGTGCTAG,-0.381 z-score
TTAGTTTTCAGTTCCGATTAGTGCTAG,4.01 z-score
TTAGAACTGGGGACCGGATTAGTGCTA,0.152 z-score
CTTAGCATGGGGAGGGAGCAGTGCTAG,0.224 z-score
TTAGATATCGGGACTGGATAAGTGCTA,0.192 z-score

# Further values, each from its own experiment
Substance,target,test,test system,conditions,scale,measurement,result
"PhoQ, residues 284 288 289 292 302 303 SCCLKL","PhoP, residues 12 14 15 18 19 IFFTR (Escherichia coli, UniProt P23836)","Sort-seq, item: YFP reporter",E. coli,"PhoQ-PhoP variant library, added: 10 µM Mg2+","baseline: high Mg2+ state, higher = stronger signaling",fold induction,0.524

# For quick reference, copied from above (sample 2):
Substitution,normalised enrichment score
HKTYRKLRLFDTP [F4Y],-0.129
KKTFRKLRLFDTP [H1K],0.9
